Measurements of several laboratories.
Lines come from different studies, so protocols differ. ± marks the error that the study gave.

Structure (SMILES) | assay | system | conditions | scale | measurement | value
CC(C)C[C@@H](NC(=O)[C@H](NC(=O)[C@H]1CCCN1)[C@H](C)O)C(=O)N[C@H](Cc1c[nH]cn1)C(=O)N[C@@H](C(=O)N[C@H](Cc1c[nH]cn1)C(=O)N[C@H](CC(N)=O)C(=O)N[C@H](CCCNC(=N)N)C(=O)N[C@H](CCCNC(=N)N)C(=O)N[C@H](CCCNC(=N)N)C(=O)N[C@H](CCCNC(=N)N)C(=O)N[C@H](CCCNC(=N)N)C(N)=O)[C@H](C)O | – | Beagle dog, CSF | oral, 20 mg/kg | – | AUC(0-inf) | 242 ± 47 ng·h/mL
COc1cc2c(cc1OC)CN(CCCCn1ccc3cc(OCC[18F])ccc31)C2 | – | male CD-1 mouse, kidney | intravenous, 15 min | – | tracer uptake | 15 %ID/g
CCNC(=O)c1noc(-c2cc(C(C)C)c(O)cc2O)c1NC(=O)CCN1CCOCC1 | – | athymic nude mice, MV4-11 xenograft | intraperitoneal, 200 mg/kg, every 2 days for 3 weeks | – | body weight loss | 2%
CCC(=O)NC1CC=C(c2cc3c(Nc4cc5ncsc5cc4F)ncnc3s2)CC1 (racemic) | – | human liver microsomes | 1 µM | – | intrinsic clearance | < 12 mL/min/g protein
N[C@H]1CC[C@H](CNc2ncc(Cl)c(Nc3cc(C4CC4)[nH]n3)n2)CC1 | – | Oct1/2 knockout mouse | dose not given | reference: without ABT over with ABT | blood clearance change | -28.2%
CC(=O)OC[C@H]1O[C@@H](Sc2sc(C(=O)c3ccc(C)cc3)c(N)c2-c2nc3ccccc3s2)[C@H](OC(C)=O)[C@@H](OC(C)=O)[C@H]1OC(C)=O | – | DMEM | 72 h, coxsackievirus B4 assay host cells | – | maximum nontoxic concentration | 100 µg/mL
O=C([O-])CN1CCN(CC(=O)[O-])CCN(CC(=O)NC[C@H]2CC[C@H](C(=O)N[C@H](Cc3cnc4ccccc4c3)C(=O)NCCCC[C@H](NC(=O)N[C@@H](CCC(=O)O)C(=O)O)C(=O)O)CC2)CCN(CC(=O)[O-])CC1.[64Cu+2] | radio-HPLC | PBS | 24 h, 37 °C | – | radiochemical purity | > 95%
COCCOCCOCCOc1ccc(/C=C/C2=[N+]3C(=C(c4cc(OC)cc(OC)c4)c4c(C)c(I)c(/C=C/c5ccc(OCCOCCOCCOC)cc5)n4[B-]3(F)F)C(C)=C2I)cc1 | – | DMSO | – | – | absorption maximum | 666 nm
N=C(N)NCCC[C@H](NC(=O)[C@@H]1CCCN1C(=O)[C@H](Cc1ccccc1)NC(=O)[C@@H]1CCCN1C(=O)[C@H](Cc1c[nH]cn1)NC(=O)[C@@H](N)Cc1ccccc1)C(=O)O | – | Sprague-Dawley rats, male, plasma | oral, 50 mg/kg | – | MRT(0-inf) | 0.969 ± 0.295 h
COc1ccc2cc(-c3ccc(-c4ccc(C)cn4)nc3)oc2c1 | TCSPC | CHCl3 | – | – | fluorescence lifetime | 1.57 ns
Cc1ccc(NCC(=O)Nc2ccc(F)c(Cl)c2)cc1CN1CCOCC1 | – | water | – | – | kinetic solubility | > 250 µM
CCCC(CCC)NC(=O)c1ccc(OS(=O)(=O)O)c(OC)c1 | – | male Sprague-Dawley rats, plasma | oral, 50 mg/kg of parent drug | reference: 50 over 20 mg/kg dose | AUC(0-last) ratio | 4.37
Cc1ccccc1/N=N/c1ccc(/N=N/c2c(O)ccc3ccccc23)c(C)c1 | – | Sprague-Dawley rats both sexes, whole blood | oral, 50 mg/kg | – | MRT(0-inf) | 3.41 h
CC(C)CCCC(C)CCCC(C)CCO[C@@H]1O[C@H](CO)[C@@H](O[C@H]2O[C@H](CO)[C@@H](O)[C@H](O)[C@H]2O)[C@H](O)[C@H]1O (stereo partly drawn) | dynamic surface tension | – | 0.0036 mmol/L | – | equilibrium surface tension | 41.4 mN/m
Cc1cc(NC(=O)[C@H](O)c2cc(F)cc(F)c2)ccc1-c1cnc(N)c(C(=O)NC(C)C)c1 | – | mouse, athymic nude Foxn1nu, female, plasma | oral, 30 mg/kg | – | free Cmax | 186 nM
Cc1ccc(OCC(=O)O)cc1 | – | male beagle dog, plasma | intravenous, 1.0 mg/kg of parent drug | reference: compound over parent drug | AUC(0-last) ratio | 2.96
OCc1[nH]nc2c1N=C(c1ccccc1Cl)c1cnc(N3CCOCC3)cc1N2 | – | human, feces and urine | oral, 10 mg | reference: dose | excretion in feces and urine | 3.46%

Structure (SMILES) | assay | system | conditions | scale | measurement | value
CC(C)[C@H](NC(=O)[C@@H]1CCCN1C(=O)[C@H](CCCNC(=N)N)NC(=O)[C@H](CS)NC(=O)[C@H](Cc1c[nH]c2ccccc12)NC(=O)[C@H](CCCNC(=N)N)NC(=O)[C@@H](Cc1ccccc1)NC(=O)[C@H](Cc1c[nH]cn1)NC(=O)[C@H](CCC(=O)O)NC(=O)[C@H](CS)NC(=O)[C@H](CS)NC(=O)CNC(=O)[C@@H]1CC(=O)N[C@@H](CCCNC(=N)N)C(=O)NCC(=O)N[C@@H](CC(=O)O)C(=O)N[C@H](Cc2ccc(O)cc2)C(=O)N1)C(N)=O [technetium-99m labelled] | – | C57 mouse, female, B16/F1 melanoma | intravenous, 0.037 MBq, 4 h | reference: tumour over kidneys | tumour to tissue ratio | 0.54
C=C(c1cc(F)c(C(=O)O)c(F)c1)c1cc2c(cc1C)C(C)(C)CCC2(C)C | – | Sprague-Dawley rat, male, plasma | oral, 100 mg/kg, 1 h, sesame oil vehicle | – | LDL level | 27 ± 6.1 mg/dL
CC(=O)N[C@H](CC(=O)O)C(=O)N[C@H](Cc1c[nH]c2ccccc12)C(=O)N[C@H](Cc1ccccc1)C(=O)N[C@H](CCCCN)C(=O)N[C@H](C)C(=O)N[C@H](Cc1ccccc1)C(=O)N[C@H](Cc1ccc(O)cc1)C(=O)N[C@H](CC(=O)O)C(=O)N[C@H](CCCCN)C(=O)N[C@@H](C(=O)N[C@H](C)C(=O)N[C@H](CCC(=O)O)C(=O)N[C@H](CCCCN)C(=O)N[C@H](Cc1ccccc1)C(=O)N[C@H](CCCCN)C(=O)N[C@H](CCC(=O)O)C(=O)N[C@H](C)C(=O)N[C@H](Cc1ccccc1)C(N)=O)C(C)C | – | statin-treated high-risk CHD men, plasma | oral, 300 mg daily, day 1, 0 to 2 h, mean, detected subjects only | – | AUC(0-t) | 5.86 ng·h/mL
CC(C)c1cnc(-c2cc(Cl)ccc2F)cc1Nc1ccncc1C(=O)NC(CO)CO | – | patients, phase I monotherapy | oral, dose not given, grade 1 | – | patients with ALT increase | 9.5%
N=C(N)NCCC[C@@H]1NC(=O)[C@H](Cc2c[nH]c3ccccc23)NC(=O)[C@@H](CC2CCCCC2)NC(=O)[C@@H]2CCCN2C(=O)[C@@H](NC(=O)CCc2ccccc2)CCCNC1=O | – | C57BL/6J mice, spinal cord | intraperitoneal, 1 mg/kg, two-compartment model | – | elimination rate constant | 0.000292 s⁻¹
O=S1(=O)CC2CCCCC2CS1 (stereo not drawn) | phase-solubility with β-cyclodextrin, NMR | water | 25.0 °C | – | intrinsic aqueous solubility | 1620 µM
C[Si]1(C[C@H](CN)CC(=O)O)CCCC1 | neuromuscular coordination | Wistar rat male | oral, 100 mg/kg, 1 h | – | performance time | 180 s
Cn1c(=O)oc2ccc(-c3ccc(CC(C#N)NC(=O)C4CNCCCO4)c(F)c3)cc21 (stereo not drawn) | – | human | oral, 20 mg once daily, TEAE, multiple ascending dose | – | triglycerides increased incidence | 11.1%
CC(C)[C@H](NC(=O)CNC(=O)[C@H](CCC(N)=O)NC(=O)[C@H](C)N)C(=O)O | LC-MS/MS | human, male, plasma | intravenous, 30 mg/kg three times daily, day 1, first dose, 10 min infusion, geometric mean | – | Cmax | 5820 ng/mL
O=C(NCCCN(CCCCN(CCCNC(=O)c1cccc(=O)n1[O-])C(=O)c1cccc(=O)n1[O-])C(=O)c1cccc(=O)n1[O-])c1cccc(=O)n1[O-].[89Zr+4] | radio-TLC | PBS | 1 d, pH 7.4, 37 °C, together with: Gd^3+ 10-fold excess | – | intact complex | 97.8 ± 3.1%
COCC1CN(C2CCN(c3cc(OC)c(Nc4ncc(Br)c(Nc5ccc6c(c5P(C)(C)=O)OCCO6)n4)cc3C)CC2)C1 | – | human patients | oral, 10 to 240 mg once daily | – | treatment-related WBC increased, all grades | 11.1%
C/C=C/CNC(=N)NCCCCCCCCN1CCCc2ccc(F)cc2COc2ccccc2CNC(=N)NC1=O | PAMPA | egg phosphatidylcholine in dodecane | 500 µM, 5 h, pH 7.4, room temperature | – | membrane retention | 50.6%
NC(=O)c1cccnc1.O.O=c1[nH]cc(F)c(=O)[nH]1.O=c1[nH]cc(F)c(=O)[nH]1.O=c1[nH]cc(F)c(=O)[nH]1 | – | rat, plasma | oral, 0.06 mmol/kg | – | CL/F | 71.2 mL/min/kg
C#CCOc1ccc(/C=C2\SC(=O)N(CC(=O)NCc3ccccc3)C2=O)cc1 | inverse Kirkwood-Buff integrals | binary solvent mixture | concentration not given, 298.15 K, mole fraction x1 0.85 | – | correlation volume | 5590 cm³/mol
CCC1CNC(CC)CN(C(C(=O)[O-])c2ccc(C(=O)[O-])cc2)C(CC)CN(CC(=O)[O-])C(CC)CN1.[Mn+2] (stereo not drawn) | ICP-MS | BALB/c mice, intestine | intravenous, 0.05 mmol/kg, 30 min | – | Mn content | 13.9 µg/g
CC(C)(O)c1ncc([S@](N)(=O)=NC(=O)Nc2c3c(cc4c2CCC4)CCC3)s1 | – | healthy human subjects | oral, dose not given | – | subjects reporting TEAEs | 70%

Excerpt of the above:
Structure (SMILES) | assay | system | conditions | scale | measurement | value
Cc1cc(NC(=O)[C@H](O)c2cc(F)cc(F)c2)ccc1-c1cnc(N)c(C(=O)NC(C)C)c1 | – | mouse, athymic nude Foxn1nu, female, plasma | oral, 30 mg/kg | – | free Cmax | 186 nM
CC(=O)OC[C@H]1O[C@@H](Sc2sc(C(=O)c3ccc(C)cc3)c(N)c2-c2nc3ccccc3s2)[C@H](OC(C)=O)[C@@H](OC(C)=O)[C@H]1OC(C)=O | – | DMEM | 72 h, coxsackievirus B4 assay host cells | – | maximum nontoxic concentration | 100 µg/mL
N=C(N)NCCC[C@@H]1NC(=O)[C@H](Cc2c[nH]c3ccccc23)NC(=O)[C@@H](CC2CCCCC2)NC(=O)[C@@H]2CCCN2C(=O)[C@@H](NC(=O)CCc2ccccc2)CCCNC1=O | – | C57BL/6J mice, spinal cord | intraperitoneal, 1 mg/kg, two-compartment model | – | elimination rate constant | 0.000292 s⁻¹
CC(C)c1cnc(-c2cc(Cl)ccc2F)cc1Nc1ccncc1C(=O)NC(CO)CO | – | patients, phase I monotherapy | oral, dose not given, grade 1 | – | patients with ALT increase | 9.5%
